Measured values of several laboratories.
Parts stem from different laboratories: compare values within a part only.
Chain of UniProt P42685 (whole entry, looked up): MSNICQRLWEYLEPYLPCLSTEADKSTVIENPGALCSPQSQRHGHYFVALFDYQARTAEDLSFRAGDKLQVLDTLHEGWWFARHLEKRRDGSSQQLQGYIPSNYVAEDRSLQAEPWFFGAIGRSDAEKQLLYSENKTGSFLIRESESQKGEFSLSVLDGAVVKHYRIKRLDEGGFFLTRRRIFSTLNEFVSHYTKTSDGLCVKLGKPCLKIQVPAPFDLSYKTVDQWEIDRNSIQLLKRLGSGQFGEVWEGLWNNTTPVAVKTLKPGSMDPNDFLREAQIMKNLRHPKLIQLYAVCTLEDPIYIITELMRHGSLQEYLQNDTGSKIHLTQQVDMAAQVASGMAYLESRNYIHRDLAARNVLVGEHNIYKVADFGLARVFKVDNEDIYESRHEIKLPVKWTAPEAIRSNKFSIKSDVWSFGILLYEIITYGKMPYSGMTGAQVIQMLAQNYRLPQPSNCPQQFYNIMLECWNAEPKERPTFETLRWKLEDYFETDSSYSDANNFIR
Chain of UniProt P10398 (whole entry, looked up): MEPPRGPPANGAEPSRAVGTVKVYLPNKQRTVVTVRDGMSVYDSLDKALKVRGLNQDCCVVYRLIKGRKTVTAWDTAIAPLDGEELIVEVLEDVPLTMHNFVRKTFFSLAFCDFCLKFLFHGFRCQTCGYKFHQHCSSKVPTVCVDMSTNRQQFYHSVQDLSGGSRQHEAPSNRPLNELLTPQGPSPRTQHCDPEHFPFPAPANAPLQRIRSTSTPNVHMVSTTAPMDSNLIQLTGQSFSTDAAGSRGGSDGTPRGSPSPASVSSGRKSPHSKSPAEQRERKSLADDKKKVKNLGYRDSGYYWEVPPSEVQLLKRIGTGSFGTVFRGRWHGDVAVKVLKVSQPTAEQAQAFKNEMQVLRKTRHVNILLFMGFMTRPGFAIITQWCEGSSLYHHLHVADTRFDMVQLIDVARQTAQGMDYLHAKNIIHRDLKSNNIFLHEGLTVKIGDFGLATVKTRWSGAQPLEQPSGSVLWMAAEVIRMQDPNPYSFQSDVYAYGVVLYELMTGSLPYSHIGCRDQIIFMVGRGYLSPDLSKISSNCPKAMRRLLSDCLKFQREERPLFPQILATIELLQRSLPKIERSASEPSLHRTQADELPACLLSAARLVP
Chain of UniProt Q9Y6M4 (whole entry, looked up): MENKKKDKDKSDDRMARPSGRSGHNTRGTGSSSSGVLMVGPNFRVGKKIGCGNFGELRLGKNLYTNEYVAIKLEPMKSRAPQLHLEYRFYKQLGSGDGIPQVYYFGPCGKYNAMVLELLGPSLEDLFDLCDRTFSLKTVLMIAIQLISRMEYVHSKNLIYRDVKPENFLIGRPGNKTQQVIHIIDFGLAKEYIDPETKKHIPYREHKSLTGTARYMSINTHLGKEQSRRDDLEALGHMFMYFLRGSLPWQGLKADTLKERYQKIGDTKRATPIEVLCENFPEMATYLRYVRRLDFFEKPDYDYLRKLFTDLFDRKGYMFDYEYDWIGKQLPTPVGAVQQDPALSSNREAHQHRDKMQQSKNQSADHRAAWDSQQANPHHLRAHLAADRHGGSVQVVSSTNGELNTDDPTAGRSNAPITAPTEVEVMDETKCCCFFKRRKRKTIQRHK
Chain of UniProt P51956 (whole entry, looked up): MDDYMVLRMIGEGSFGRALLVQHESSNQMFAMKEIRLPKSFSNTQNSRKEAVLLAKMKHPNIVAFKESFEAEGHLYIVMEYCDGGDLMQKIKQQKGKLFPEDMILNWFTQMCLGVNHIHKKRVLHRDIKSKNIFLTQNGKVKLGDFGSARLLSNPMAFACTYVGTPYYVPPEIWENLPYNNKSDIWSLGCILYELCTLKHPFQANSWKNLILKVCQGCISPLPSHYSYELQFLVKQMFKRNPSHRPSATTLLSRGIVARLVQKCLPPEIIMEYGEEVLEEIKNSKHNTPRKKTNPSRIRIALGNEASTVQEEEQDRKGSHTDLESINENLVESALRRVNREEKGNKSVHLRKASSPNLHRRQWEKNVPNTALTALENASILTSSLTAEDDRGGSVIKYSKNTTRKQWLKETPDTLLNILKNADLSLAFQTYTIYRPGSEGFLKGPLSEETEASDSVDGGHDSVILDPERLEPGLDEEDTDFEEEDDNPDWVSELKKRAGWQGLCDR
Chain of UniProt Q9UHD2 (whole entry, looked up): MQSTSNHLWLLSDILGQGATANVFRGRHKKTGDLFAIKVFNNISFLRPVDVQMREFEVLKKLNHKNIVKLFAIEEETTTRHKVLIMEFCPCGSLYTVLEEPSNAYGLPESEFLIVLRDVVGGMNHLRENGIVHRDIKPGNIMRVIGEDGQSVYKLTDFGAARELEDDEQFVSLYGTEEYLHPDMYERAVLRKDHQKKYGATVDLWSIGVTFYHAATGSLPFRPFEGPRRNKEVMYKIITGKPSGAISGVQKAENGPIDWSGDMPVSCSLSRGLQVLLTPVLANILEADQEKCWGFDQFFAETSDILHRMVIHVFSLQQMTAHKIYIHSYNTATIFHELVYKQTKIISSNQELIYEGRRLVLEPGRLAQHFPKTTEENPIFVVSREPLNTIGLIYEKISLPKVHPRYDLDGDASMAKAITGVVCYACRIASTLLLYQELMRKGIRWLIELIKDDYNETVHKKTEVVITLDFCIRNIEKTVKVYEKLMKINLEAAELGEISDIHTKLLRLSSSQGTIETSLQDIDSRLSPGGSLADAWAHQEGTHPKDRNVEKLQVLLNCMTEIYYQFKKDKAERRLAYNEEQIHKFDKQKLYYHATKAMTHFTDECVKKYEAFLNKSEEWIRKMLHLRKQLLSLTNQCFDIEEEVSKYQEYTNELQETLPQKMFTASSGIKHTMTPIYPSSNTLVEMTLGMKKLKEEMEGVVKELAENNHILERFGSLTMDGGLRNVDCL
Chain of UniProt P06239 (whole entry, looked up): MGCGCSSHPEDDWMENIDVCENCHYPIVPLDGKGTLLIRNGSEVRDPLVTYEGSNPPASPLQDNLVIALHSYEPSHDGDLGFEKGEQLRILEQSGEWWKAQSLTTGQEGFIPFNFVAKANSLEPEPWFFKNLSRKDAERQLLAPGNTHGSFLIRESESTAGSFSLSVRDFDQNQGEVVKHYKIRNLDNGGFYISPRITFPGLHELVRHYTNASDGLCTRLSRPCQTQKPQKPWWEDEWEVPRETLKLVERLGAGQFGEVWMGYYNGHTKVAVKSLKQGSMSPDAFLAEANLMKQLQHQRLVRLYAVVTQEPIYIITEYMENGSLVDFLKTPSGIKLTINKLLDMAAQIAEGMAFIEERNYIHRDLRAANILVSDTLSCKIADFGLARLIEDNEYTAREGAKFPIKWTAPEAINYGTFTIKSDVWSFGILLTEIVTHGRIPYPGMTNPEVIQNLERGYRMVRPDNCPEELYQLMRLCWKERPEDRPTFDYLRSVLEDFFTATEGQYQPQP

Set 1
SMILES: CC(C)[C@H](CO)Nc1nc(Nc2cc(N)cc(Cl)c2)c2ncn(C(C)C)c2n1
Observed: enzyme activity
Mode: inhibitor
Tested at: 0.5 µM
Reference: control
target	remaining activity
LCK (Homo sapiens, UniProt P06239)	70.2%
JAK3 (Homo sapiens, UniProt P52333)	108%
TBK1 (Homo sapiens, UniProt Q9UHD2)	86.6%
MAPK3 (Homo sapiens, UniProt P27361)	106%
MAPKAPK2 (Homo sapiens, UniProt P49137)	92.8%
MERTK (Homo sapiens, UniProt Q12866)	79.7%
WEE1 (Homo sapiens, UniProt P30291)	70.8%
ARAF (Homo sapiens, UniProt P10398)	82.4%
MST1R (Homo sapiens, UniProt Q04912)	122%
MAP2K2 (Homo sapiens, UniProt P36507)	87.5%
NEK6 (Homo sapiens, UniProt Q9HC98)	111%
GRK7 (Homo sapiens, UniProt Q8WTQ7)	79.3%
GSK3B (Homo sapiens, UniProt P49841)	103%
TAOK2 (Homo sapiens, UniProt Q9UL54)	82.2%
MAP3K14 (Homo sapiens, UniProt Q99558)	100%
TEK (Homo sapiens, UniProt Q02763)	92.5%
CSNK1G3 (Homo sapiens, UniProt Q9Y6M4)	13.4%
FRK (Homo sapiens, UniProt P42685)	70.3%
CSNK1G2 (Homo sapiens, UniProt P78368)	35.2%

Set 2
Cell line: A-375
Tested at: 100 µM
Time: 18 h
Compound	viability [%]
CC(C)C[C@H](NC(=O)[C@H](CCc1ccccc1)NC(=O)CN1CCOCC1)C(=O)N[C@@H](Cc1ccccc1)C(=O)N[C@@H](CC(C)C)C(=O)[C@@]1(C)CO1	16.2
NC(=O)c1ncn([C@@H]2O[C@H](CO)[C@@H](O)[C@H]2O)c1O	105
CCCCCCCCN[C@@H](C)[C@H](O)c1ccc(SC(C)C)cc1 (racemic)	7.66
CC(C)[C@H](NC(=O)[C@H](CC(=O)O)NC(=O)[C@H](CCCCN)NC(=O)[C@@H](N)CCCN=C(N)N)C(=O)N[C@@H](Cc1ccc(O)cc1)C(=O)O	96.7
C=CC(=O)Nc1cccc(Nc2nc(Nc3ccc(N4CCN(C(C)=O)CC4)cc3OC)ncc2C(F)(F)F)c1	14.5
COCC(=O)Nc1c(I)c(C(=O)NCC(O)CO)c(I)c(C(=O)N(C)CC(O)CO)c1I (mixture of isomers)	102
N#CC1(c2ccc(NC(=O)c3cccnc3NCc3ccncc3)cc2)CCCC1	63.1
O=C(O)c1ccc[n+]([O-])c1	109

Set 3
SMILES: CO[C@H]1CC[C@H](CNc2ccc(S(=O)(=O)NC(=O)c3ccc(N4CCN(CC5=C(c6ccc(Cl)cc6)CC(C)(C)CC5)CC4)cc3Oc3cnc4[nH]ccc4c3)cc2[N+](=O)[O-])CC1
Observed: cell-free assay
Technique: competition with immobilised ligand
Tested at: 1 µM
target	remaining binding [%]
PRKD3 (Homo sapiens, UniProt O94806)	100
Tyrosine-protein kinase ABL1, non-phosphorylated (ABL1, Homo sapiens, UniProt P00519, F317L)	100
Receptor-type tyrosine-protein kinase FLT3, autoinhibited (FLT3, Homo sapiens, UniProt P36888)	100
MAP3K1 (Homo sapiens, UniProt Q13233)	100
NEK3 (Homo sapiens, UniProt P51956)	66
SBK1 (Homo sapiens, UniProt Q52WX2)	100
BMPR2 (Homo sapiens, UniProt Q13873)	100
HASPIN (Homo sapiens, UniProt Q8TF76)	88

Set 4
Target: Beta-1 adrenergic receptor (ADRB1, Homo sapiens, UniProt P08588)
Chain of UniProt P08588 (whole entry, looked up): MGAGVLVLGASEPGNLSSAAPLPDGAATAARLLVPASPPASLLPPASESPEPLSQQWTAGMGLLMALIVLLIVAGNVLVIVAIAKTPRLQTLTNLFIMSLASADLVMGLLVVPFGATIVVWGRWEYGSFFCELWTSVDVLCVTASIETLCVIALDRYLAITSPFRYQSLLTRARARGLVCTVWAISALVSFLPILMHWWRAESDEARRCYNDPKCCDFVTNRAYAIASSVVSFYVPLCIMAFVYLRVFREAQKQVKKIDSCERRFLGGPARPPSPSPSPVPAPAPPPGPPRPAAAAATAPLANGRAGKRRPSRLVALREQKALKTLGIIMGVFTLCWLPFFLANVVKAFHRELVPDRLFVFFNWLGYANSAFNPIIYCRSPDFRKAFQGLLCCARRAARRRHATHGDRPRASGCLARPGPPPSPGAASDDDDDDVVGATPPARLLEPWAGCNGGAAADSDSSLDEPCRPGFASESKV
Mode: agonist
SMILES	EC50 [µM]
Clc1ccccc1C(c1ccccc1)N1CCNCC1 (stereo not shown)	≥ 100
N#Cc1cc(NC(=O)Nc2nnc(-c3ccncc3)s2)ccc1-c1cn[nH]c1	2.51
N#Cc1ccc(C(=O)Nc2ccc([C@@H](O)[C@H]3COCC(=O)N3CCCc3ccccc3)cc2)cc1	≥ 100
CN(C)c1ccc(CNC2(Cc3cc(-c4ccc(F)cc4)on3)COC2)cc1	≥ 100
Cc1noc(C)c1-c1cc2cc(C(C)C)oc2c(NCCN2CCOCC2)n1	≥ 100
Cc1cccc(-c2n[nH]cc2-c2ccc(F)c(-c3cnn(CCO)c3)c2)n1	≥ 100
CN(C)Cc1cc(CC2(NCc3ccc(N(C)C)cc3)COC2)no1	≥ 100
CCN(C)c1ccc(C(=O)N2CCC(c3c[nH]c4ccc(C(N)=O)cc34)CC2)cc1	≥ 100
